Measured values gathered from unrelated publications.
Numbered parts are unrelated; each lists some results of a single study.

Set 1
Target: Histone acetyltransferase KAT6A, winged helix 2, GST fusion (KAT6A, Homo sapiens, UniProt Q92794, residues 85-181)
Technique: protein binding microarray
Molecule type: double-stranded DNA, one strand shown
Medium: in vitro
Tested at: not given
Notes: 8-mer, flanks averaged, mean of 2 arrays, mostly near background
Reference: not given
Reading: higher = stronger binding
Construct (chain): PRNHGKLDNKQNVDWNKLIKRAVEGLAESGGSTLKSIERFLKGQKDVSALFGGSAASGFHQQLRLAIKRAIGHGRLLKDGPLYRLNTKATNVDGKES
Strand | E-score
AAGTGGGT | 0.0472
AGATCCCT | -0.259
CCGGGGCG | 0.228
TAAGGATA | -0.0836
AGCTCTCC | 0.0209
GCAACGAC | -0.0012
GCAATGGA | -0.111
AAGGCCAC | -0.101
CATAATTC | -0.0803
AGTATGGC | -0.0258
AGAAAAGG | 0.0544
CGCGTCCA | 0.0837
AGTGAGTG | 0.0419
CATTTCTC | -0.0317
CAGGGTGA | -0.00665
CGCTTTGC | 0.159
ACTCAACT | -0.0342
ACCGCCGG | 0.188
CTAGACCC | -0.12
CTAGAAAA | -0.15
AACTGGTA | -0.0561
AGCAAGAA | 0.0363
CAGACAAG | -0.0193
AAACCCTG | -0.00709
GCGGACGA | 0.284

Set 2
Target: Interferon regulatory factor 7, full length, phosphomimetic (IRF7, Homo sapiens, UniProt Q92985, residues 1-503, S471D/S472D/S475D/S476D/S477D/S483D/S484D/S487D)
Technique: protein-binding microarray
Molecule type: double-stranded DNA, one strand shown
Medium: in vitro
Tested at: 2200 nM top
Notes: 60-bp whole probe
With: salmon DNA 0.4 mg/ml
Reference: random background probes
Reading: higher = stronger binding
All sequences stand within: GCCTAGCAC … GTCTTGATTCGCTTGACGCTGCTG
Construct (chain): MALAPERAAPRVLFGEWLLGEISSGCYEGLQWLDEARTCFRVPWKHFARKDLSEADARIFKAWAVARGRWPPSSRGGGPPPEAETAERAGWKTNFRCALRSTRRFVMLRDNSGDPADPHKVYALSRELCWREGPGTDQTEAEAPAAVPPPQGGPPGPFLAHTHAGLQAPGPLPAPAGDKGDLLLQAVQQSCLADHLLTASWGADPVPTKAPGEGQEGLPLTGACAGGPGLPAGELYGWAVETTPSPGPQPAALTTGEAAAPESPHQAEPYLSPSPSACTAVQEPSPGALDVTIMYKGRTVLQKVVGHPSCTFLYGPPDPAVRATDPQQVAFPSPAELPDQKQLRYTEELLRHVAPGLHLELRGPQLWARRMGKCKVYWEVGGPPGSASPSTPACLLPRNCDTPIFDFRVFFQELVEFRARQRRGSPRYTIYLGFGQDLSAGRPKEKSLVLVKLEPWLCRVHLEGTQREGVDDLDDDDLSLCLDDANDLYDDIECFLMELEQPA
Strand | fitted relative affinity [z-score]
TTAGATTTCAGTATCGGTTAGTGCTAG | 1.18
TTAGGTACCGACTATCGGTTAGTGCTA | 0.219
CTAGGTATCCTACTGCTTTAGTGCTAG | 0.631
TTAGATATCGGGTATCGATGAGTGCTA | -0.0555
GATGATATCAGTATCGAGACGTGCTAG | 0.157
TTAGGACTGCTACTGCTTAAGTGCTAG | -0.219
GAAGGACTGCTTTTCCTGACGTGCTAG | 0.458
GACGATGTCGGGTTTCGAGACGTGCTA | 1.1
GACGGTCTCCATTTCCTGACGTGCTAG | 1.4
TCTCTGCTACCCTCTGAAAGTGTGCTA | 1.36
GAAGATTTCAGTCTCGAGACGTGCTAG | 0.513
TCAAATATTCATTTTATACTGTGCTAG | 0.578
TCATCAATCATTTTCGTACTGTGCTAG | 3.34
ACAGCAAGAGCTCAACGGGGGTGCTAG | 0.0382
GACGATATCAATTTCGAGACGTGCTAG | 1.25
TCAAATTTAGAAAATGGAACTGTGCTA | -1.25
TCACTTTCCCAGCCTGGGACTGTGCTA | 2.68
TTAGGTCTCGGACTGGGCTAGTGCTAG | -0.662

Set 3
Target: RNA binding protein fox-1 homolog 2, RRM domain, GST-SBP tag (RBFOX2, Homo sapiens, UniProt O43251-10, residues 100-194)
Technique: RNA Bind-n-Seq
Molecule type: RNA
Medium: in vitro
Tested at: 365 nM
Notes: natural RNA segment, single round, ends assumed
Reference: no-protein control
Reading: higher = stronger binding
All sequences stand within: GGGAGUUCUACAGUCCGACGAUC … UGGAAUUCUCGGGUGCCAA
Strand | RBNS enrichment (R)
CAGGAGGCAUCAAGCCUCUAAAGAAUGUCUCACCUCCUCUGCCCAAAAAUGAUGCCUUUCUGUAGGCUGGUGUUGUUGCCUCCCUCCCAGGAUCCCUUUGGUGAGUAUGG | 0.468
AAGAGUUUUCCAGCCCAAGGCAAAAUGGAAGAUUGCUGACCCAACCACAAACCCAUCCCUGCGGAGUCUCUCUCUCUCUCUCUCUCUCUCUCUCUCUCUCUCUCUCUCUC | 0.77
AUAACUUGCUAAACAAGUAUUCCAAAAAUUUGAUCUAGUCAAUCCAUUGUGUGAAUCUCAAAUAUCUCAAGACACGCAGCCUAAGCAUCUCCAUUAUCCCGUGCACAUAA | 0.512
GAAAGGACCCCCUCCUUAUGGAUUGCCUUGGCUUUGACCCUGAGCUAAGGCUGGCCCUAUUCCAUCCUUCUUCCUAGAUGAUGGGUGUGUUAAUGGGAGGAAGGAAAGAG | 0.434
GUCUACAGGAAAGAGAUGUUCUGCAAACAAGGGUGGAUGCCUGCAGUAGAGGUCAGAGCUGGUUACCUGCCUUAGUUACAAGUGUCGGUUAUGUUCUGGGUCUUUGUAAU | 1.06
UGAUGACUUUGUUCUCCCUCCCACUGGGGGAAUCCUCCCUAUGCCUUAAAACUGCCGAGCCCCACUCCAUGUAAUAGGAUUCCUGGGCUUCCUCAAUGGGGGUUCAUGUU | 0.526
AGGGAGGGAGACUCCUUGUCCCAGACCUCAGUCCUGCUUCCAACUGCCUUCCUUGCCCUCACUGUUCUGGGGUGGGGGACAUCCCCGGGGAUCCCUGAGAAGAGUGUCCU | 0.593
CUCUACAAAGACAUUCCCUGGCAGUAAGAAAUGCUGAAAUGCUUUUUGUUGGUUUUGAAACACUCCCCCAGUUCUAGCUGUACCCCAGAAAAACAAAUACUUUCUUGAUC | 0.414
GUGUAAGACUCAGCAGUGUUCAUGGUUAAGGUAAGGAACAUGCCUUUUCCAGAGCUGCUGCAAGAGGCAGGAGAAGCAGACCUGUCUUAGGAUGUCACUCCCAGGGUAAA | 0.637
UCUGUGAGUCCCUCUGGGCGGCUCGUGUACUGAUCGGAUCGGCACCAUGACACUUCCCCUAGACUGUGACUCCCAAAUGCAUAAUAUUAAUCUCAUUUGGCUUCUGGUUU | 2.28
CUGCCUCACCUGCUUCGCCACAGACUCUUGUUCCCAGCCCCUUGGGGCCUCCGUGUUUGGGGUGGGGGAGCUGCUUAGAGACUGUGCCCGUCCUCGGCCCCCCACCCUGA | 0.557
UUUGUACAUUUUUGUAUGUUAAUUUAUGAAUGAUUUUUUCAGUAAAAAAUACAUAUUCAAUAACCAACCUUGGUAGUCGUCUCUCUGUCUAGCUGCCUCUCAGGGUGGUU | 0.487

Set 4
Target: RING finger protein unkempt homolog, zinc fingers 1-6, GST-SBP tag (UNK, Homo sapiens, UniProt Q9C0B0, residues 30-357)
Chain of UniProt Q9C0B0 (30-357, looked up): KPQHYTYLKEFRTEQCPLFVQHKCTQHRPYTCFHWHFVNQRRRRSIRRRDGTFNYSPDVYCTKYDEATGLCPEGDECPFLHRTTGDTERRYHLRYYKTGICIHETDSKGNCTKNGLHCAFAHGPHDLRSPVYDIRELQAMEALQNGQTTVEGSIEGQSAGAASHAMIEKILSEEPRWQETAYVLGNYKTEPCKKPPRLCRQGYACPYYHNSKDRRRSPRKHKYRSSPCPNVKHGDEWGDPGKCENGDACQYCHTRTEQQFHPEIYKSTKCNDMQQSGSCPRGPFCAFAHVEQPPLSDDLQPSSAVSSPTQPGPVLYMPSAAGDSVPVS
Technique: RNA Bind-n-Seq
Molecule type: RNA
Medium: in vitro
Tested at: not given
Notes: RNA with constant flanks, human-mouse chimeric sites, ends assumed
Reference: input RNA pool
Reading: higher = stronger binding
All sequences stand within: GGGAGUUCUACAGUCCGACGAUC … CAACAGAGGAUUGAGCAUCA
Strand | bound/input enrichment [ratio]
CAGCUGCGAGGCCGCGGUUUCCCCCUGGGCCUCCCCAGCAGCAGCCAUGGGCAUCAAAUUUUUAGAAGUUAUCAAACCAUUCUGUGCAGUUCUACCAGAAAUUCAGAAACCGGAAAGGAA | 0.841
AAAGAGUGGAUAGAAUGUGCACACGGGAUCGGUGGGACCCGGGCGAAGAAAGAGUGCAAGAUAGAGUUCGAUGACUUCGAAGAGUGCUUGCUUCGGUACAAAACGAUGAGGCGAAUGCAU | 0.275
CUGUGACCACAAGAUCCUACCUGAGUGGCAGCUGAAGUUGACUCCCUCUCCUUGCCUGAACCCCCCCCUUUUGUUCCCCCAUCCCCCGCAGAAUUCCGAGAUGUUGCCUCUGCACGGUUC | 2.53
GCUCCUCCCCGCUCUGCAGCCUGGGGACUUUUGGCAAGGACCAGAAUCCAGCUUUCUUUUAAUAGUGUCAGUGUAACUGUAUCCCGUGACAUUUCAUUUUUUUUAAAUAGUGUAUUUUUU | 20.3
GCUCUUGGGAAUGUAAUCAGCGCCUUGGGAGACAAGAGCAAGAGAGCCACCCAUGUCCCUUACAGAGACUCUAAGCUAACAAGACUAUUGCAGGAUUCCCUUGGGGGUAACAGCCAAACC | 0.173
GACCCACAGUGGUCUGAGGAGCAACUCAUUGCUGCAAAAUUCUGUUUUGCUGGCCUUGUUAUAGGGCAGACUGAAGUGGACAUCAUGAGUCAUGCCACACAAGCUAUUUUUGAAAUUCUG | 0.194
GAUGAUAAUCACACAAACAAGUCACUGUUACAUGACCAGCCUUGGGAUUCUUUUCCUGAUUAGUAUUCUCCCUGGAACCACUGGUCAAGGGGAAUCAAGACGACAAGAACCUGGGGACUU | 0.161
AGAGAUAAGACAUCCAGGAACAUGCGAGGCUCCCGGAUGAAUGGACUUCCAAGUCCCACUCACAGCGCCCACUGUAGCUUCUACCGAACCAGAACCUUGCAGGCACUGAGUAAUGAGAAG | 0.107
CCCUCCCCGGGCCACCCGCCCGCCCAAGCUCCCCGCCGAGAUCCAGGUUUCUUCUUAUUUCAUAGCCAAUAAGAAAAAUGUUCUACGCACAUUUUGUCCUCAGUAAACGAGGGCCUCUGG | 1.92
GCCACCAGAUCCCAGAAACAUGACCCUUGCUGCCUACAAAGAGAAGAUGAAGGAACUCCCGCUGGUGUCCUUGUUCUGCUCUUGCUUCCUGGCCGAUCCCCUGAAUAAGUCGUCCUACAA | 0.246
AAAGAGUGGAUAGAAUGUGCACACGGGAUCGGUGGGACCCGGGCGAAAAAGGAGUGCAAGAUAGAGUUCGAUGACUUCGAAGAGUGCUUGCUUCGGUACAAAACGAUGAGACGUGCACAU | 0.218

Set 5
Target: Cln2 (Saccharomyces cerevisiae)
Effect on: peptide binding
Technique: competitive growth sequencing
Molecule type: peptide
Organism: Saccharomyces cerevisiae
Strain: unfused Cln2 strain
Notes: peptide tiling library
Reading: direction not given
Molecule | enrichment score
SNFFDVIKQLFSDEKN | -0.52
RQVRRDLFAF | -1.23
QYQVVDDIVSKLVFDF | 0.237
NESHLDKEHDAVEVAD | 0.47
ASVLSKPIFCFVKD | 0.361
AEHPKPSACRNLFGPV | -0.329
GTPKRCLDLSNLSSGE | -0.0495
KRCATPVIIDEILPSK | 0.306
AKRSLGFLPQPVPL | -0.737
NSMKELNFSHLPSNSV | 0.301
DKYDEGLYRFNSLNDL | 0.402
RTEALEQGGLPKKLIF | 0.59
QNPCGSKACRRLFGPV | -1.09
VKRLNFRSEEME | -0.409

Set 6
Target: Sal-like protein 4, full length isoform B (SALL4, Homo sapiens, UniProt Q9UJQ4-2, residues 1-616)
Technique: universal PBM
Molecule type: double-stranded DNA, one strand shown
Medium: in vitro
Tested at: not given
Notes: 8-mer, flanks averaged, mean of replicates
Reading: higher = stronger binding
Strand | E-score
AAGTAATG | 0.201
GATTACGC | 0.115
CTGTCAGA | -0.139
GTGACGTA | 0.0583
CCTGCCCG | -0.194
AGTTCTAC | 0.0402
ATCACAGC | 0.0942
CACCCTAG | -0.0835
ACGGTTGG | -0.131
CGGCGCCA | -0.319
TGACGACA | 0.0235
TGCAGCCA | -0.189
TCGACCCA | -0.128
ATGAAGGC | 0.11
ACTCCCTA | 0.095
CGGCTACC | -0.316
CTCCATAA | 0.247
CAGGAAAG | -0.099
AGTTGTTG | 0.0237
AGGCGTTC | -0.176
GGCCACAC | -0.176
TCGTTACA | 0.0518
GAAGAGGC | -0.0575
GGGCCACC | -0.362
CGCTCTGC | -0.176
